Assay results from different studies.
Every numbered part comes from another study and shows a few of its results, in no order. Several values in a cell are separate wells, animals, samples, runs or records. Substitutions count along the parent as printed.
Chain of UniProt Q9UHD2 (whole entry, looked up): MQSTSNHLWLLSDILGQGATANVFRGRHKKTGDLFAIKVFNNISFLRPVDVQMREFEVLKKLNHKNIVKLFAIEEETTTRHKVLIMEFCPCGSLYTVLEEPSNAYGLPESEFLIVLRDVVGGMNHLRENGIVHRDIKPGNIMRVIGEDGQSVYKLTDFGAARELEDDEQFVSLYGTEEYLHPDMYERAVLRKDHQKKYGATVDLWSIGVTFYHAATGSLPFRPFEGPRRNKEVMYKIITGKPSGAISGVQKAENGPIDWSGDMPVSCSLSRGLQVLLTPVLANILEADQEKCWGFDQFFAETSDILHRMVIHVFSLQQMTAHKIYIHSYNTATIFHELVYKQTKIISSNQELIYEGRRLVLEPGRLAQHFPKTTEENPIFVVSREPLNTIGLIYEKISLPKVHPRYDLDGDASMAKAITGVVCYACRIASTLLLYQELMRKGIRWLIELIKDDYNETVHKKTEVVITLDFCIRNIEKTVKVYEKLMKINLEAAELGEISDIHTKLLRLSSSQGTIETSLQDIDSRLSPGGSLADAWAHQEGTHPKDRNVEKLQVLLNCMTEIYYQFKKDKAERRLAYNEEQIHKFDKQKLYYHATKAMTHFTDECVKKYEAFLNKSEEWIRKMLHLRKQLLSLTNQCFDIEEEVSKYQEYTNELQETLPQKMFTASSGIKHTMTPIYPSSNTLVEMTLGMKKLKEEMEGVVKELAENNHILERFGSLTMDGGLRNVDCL
Chain of UniProt O14965 (whole entry, looked up): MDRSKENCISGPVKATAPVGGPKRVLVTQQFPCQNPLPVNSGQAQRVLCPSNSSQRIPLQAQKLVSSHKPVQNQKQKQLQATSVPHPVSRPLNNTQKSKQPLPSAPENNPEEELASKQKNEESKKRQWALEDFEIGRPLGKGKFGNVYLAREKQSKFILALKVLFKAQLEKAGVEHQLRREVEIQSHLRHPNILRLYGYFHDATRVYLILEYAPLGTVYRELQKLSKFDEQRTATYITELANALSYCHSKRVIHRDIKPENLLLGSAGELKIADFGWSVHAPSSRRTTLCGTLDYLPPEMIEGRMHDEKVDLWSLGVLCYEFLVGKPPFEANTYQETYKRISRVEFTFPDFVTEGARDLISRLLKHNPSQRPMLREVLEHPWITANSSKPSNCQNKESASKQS
Chain of UniProt Q9BUB5 (whole entry, looked up): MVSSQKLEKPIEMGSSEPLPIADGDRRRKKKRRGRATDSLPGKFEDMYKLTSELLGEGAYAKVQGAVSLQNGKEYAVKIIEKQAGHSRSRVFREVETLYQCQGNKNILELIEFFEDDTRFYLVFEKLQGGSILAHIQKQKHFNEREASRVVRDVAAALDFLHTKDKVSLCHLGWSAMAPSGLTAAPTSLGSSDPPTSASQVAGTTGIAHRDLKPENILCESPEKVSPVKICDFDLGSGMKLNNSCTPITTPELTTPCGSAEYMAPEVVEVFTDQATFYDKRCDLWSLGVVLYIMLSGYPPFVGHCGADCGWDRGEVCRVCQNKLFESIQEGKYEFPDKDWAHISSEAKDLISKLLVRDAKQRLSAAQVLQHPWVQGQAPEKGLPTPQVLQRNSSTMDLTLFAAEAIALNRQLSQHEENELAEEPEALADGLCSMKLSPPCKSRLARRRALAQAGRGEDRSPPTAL
Chain of UniProt O95819 (whole entry, looked up): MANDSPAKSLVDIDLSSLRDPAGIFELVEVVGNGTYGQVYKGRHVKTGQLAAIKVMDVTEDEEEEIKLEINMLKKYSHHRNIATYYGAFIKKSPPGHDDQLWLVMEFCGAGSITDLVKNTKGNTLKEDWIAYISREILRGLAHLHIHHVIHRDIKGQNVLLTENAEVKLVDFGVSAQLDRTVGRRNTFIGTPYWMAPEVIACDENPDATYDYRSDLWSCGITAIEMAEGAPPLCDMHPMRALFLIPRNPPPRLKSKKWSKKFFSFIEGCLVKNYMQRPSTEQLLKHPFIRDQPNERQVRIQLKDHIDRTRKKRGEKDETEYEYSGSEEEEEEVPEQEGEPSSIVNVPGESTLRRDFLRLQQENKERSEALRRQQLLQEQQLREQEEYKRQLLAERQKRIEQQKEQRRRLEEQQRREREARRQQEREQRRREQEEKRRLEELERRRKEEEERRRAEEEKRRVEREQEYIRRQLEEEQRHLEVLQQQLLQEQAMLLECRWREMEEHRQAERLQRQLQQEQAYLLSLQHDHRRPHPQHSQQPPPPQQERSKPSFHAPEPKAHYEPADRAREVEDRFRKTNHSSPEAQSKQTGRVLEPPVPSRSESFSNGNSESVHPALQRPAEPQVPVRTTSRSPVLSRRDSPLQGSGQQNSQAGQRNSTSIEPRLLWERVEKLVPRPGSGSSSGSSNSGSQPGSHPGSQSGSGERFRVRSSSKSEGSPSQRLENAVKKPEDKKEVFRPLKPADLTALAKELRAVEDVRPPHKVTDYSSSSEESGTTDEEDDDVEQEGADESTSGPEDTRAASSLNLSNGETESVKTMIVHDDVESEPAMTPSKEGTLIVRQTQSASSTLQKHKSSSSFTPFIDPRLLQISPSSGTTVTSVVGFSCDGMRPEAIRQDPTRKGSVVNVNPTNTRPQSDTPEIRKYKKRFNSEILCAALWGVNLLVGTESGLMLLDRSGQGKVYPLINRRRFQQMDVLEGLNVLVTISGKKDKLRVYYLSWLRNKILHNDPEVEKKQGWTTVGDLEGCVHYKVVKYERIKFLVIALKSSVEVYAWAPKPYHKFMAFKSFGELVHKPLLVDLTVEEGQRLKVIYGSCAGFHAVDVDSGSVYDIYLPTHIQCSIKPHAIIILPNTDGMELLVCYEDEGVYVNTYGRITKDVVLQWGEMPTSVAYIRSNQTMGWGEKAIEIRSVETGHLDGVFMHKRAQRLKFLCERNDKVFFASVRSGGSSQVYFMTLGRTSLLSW
Chain of UniProt Q96SB4 (whole entry, looked up): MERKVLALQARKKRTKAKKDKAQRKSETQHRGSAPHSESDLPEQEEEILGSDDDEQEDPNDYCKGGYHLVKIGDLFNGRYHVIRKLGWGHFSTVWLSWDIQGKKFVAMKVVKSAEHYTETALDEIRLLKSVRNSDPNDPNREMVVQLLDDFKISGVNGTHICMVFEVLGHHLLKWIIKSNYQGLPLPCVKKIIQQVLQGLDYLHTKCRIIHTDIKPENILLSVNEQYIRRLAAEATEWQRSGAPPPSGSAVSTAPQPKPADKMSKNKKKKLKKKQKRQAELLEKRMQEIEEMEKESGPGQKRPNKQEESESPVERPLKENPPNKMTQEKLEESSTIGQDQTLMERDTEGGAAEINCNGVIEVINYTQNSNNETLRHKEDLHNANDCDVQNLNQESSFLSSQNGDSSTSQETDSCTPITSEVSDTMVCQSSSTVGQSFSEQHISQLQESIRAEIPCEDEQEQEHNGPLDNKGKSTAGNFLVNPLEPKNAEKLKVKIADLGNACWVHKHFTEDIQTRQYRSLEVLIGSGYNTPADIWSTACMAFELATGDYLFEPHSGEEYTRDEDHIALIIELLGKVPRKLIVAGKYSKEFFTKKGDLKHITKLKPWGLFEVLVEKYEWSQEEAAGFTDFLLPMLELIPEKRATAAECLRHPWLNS

Block 1
Compound: Cn1cncc1[C@@](O)(COc1ccc(C#N)cc1-c1ccc(OC(F)(F)F)cc1)c1ccc(C#N)cc1
Observed: cell-free assay
Method: competition with immobilised ligand
Tested at: 1 µM
Quantity: remaining binding
Mitogen-activated protein kinase kinase kinase kinase 4 (MAP4K4, Homo sapiens, UniProt O95819): 100%
Tyrosine-protein kinase ABL1, phosphorylated (ABL1, Homo sapiens, UniProt P00519, Y253F): 92%
Aurora kinase A (AURKA, Homo sapiens, UniProt O14965): 76%
SRSF protein kinase 1 (SRPK1, Homo sapiens, UniProt Q96SB4): 97%
MAP kinase-interacting serine/threonine-protein kinase 1 (MKNK1, Homo sapiens, UniProt Q9BUB5): 81%

Block 2
Compound: CC(C)S(=O)(=O)c1ccc2nccc(Nc3ccc4sc(C5CCCC5)nc4c3)c2c1.Cl
Quantity: viability
L929 RIPK3 knockout; 6.25 µM, with: zVAD: 103% and 104% and 102%
L929; CCK-8; 50 µM, with: zVAD: 54.3% and 52.4% and 54.8% and 55.9%
L929 RIPK3 knockout; 0.781 µM: 108% and 102% and 95.9% and 101% and 96.2%
L929 RIPK3 knockout; 0.781 µM, with: zVAD: 102% and 99.5% and 100% and 99%
L929; CCK-8; 50 µM: 53.3% and 57.7% and 56.6% and 56.4%
L929; CCK-8; 1.563 µM, with: zVAD: 96% and 94.7% and 96.9% and 93.9% and 96.7%
L929 RIPK3 knockout; 50 µM, with: zVAD: 59.9% and 62.7% and 63.4% and 64.1%
L929 RIPK3 knockout; 6.25 µM: 103% and 97.8% and 101% and 105% and 97%
L929; CCK-8; 3.125 µM, with: zVAD: 99.5% and 99.6% and 99.7% and 100% and 97.9%

Block 3
Target: CCND1, cyclin fold, Cln2 fusion (human)
Method: yeast growth competition, sequencing
Medium: yeast
Setting: strong parent motif
Reference: not given
Reading: higher = stronger binding
Quantity: normalised enrichment score
Starting sequence: viral docking peptide; YKVKRRLVFGADD; partner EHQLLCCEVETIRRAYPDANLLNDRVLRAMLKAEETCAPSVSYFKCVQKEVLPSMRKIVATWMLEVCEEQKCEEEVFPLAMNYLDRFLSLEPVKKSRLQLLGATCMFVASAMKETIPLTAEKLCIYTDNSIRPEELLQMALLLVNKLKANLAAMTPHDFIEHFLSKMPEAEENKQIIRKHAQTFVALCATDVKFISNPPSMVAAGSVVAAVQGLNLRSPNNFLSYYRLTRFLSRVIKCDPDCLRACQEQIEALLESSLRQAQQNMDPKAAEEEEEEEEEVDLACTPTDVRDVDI
YDVKRRLVFGADD [K2D]: 1.78
YKVKRRLIFGADD [V8I]: 1.81
YKVDRRLVFGADD [K4D]: 0.173
YKVKRRLRFGADD [V8R]: 0.308
YKVKRRLVFIADD [G10I]: 1.08
YKVKRFLVFGADD [R6F]: 0.417
YKVKRRLVFYADD [G10Y]: 1.03
AKVKRRLVFGADD [Y1A]: 1.24

Further values, each from its own experiment
COC(=O)[C@]1(O)C[C@@H]2O[C@@]1(C)n1c3ccccc3c3c4c(c5c6ccccc6n2c5c31)C(=O)NC4
remaining activity (Serine/threonine-protein kinase TBK1 (TBK1, Homo sapiens, UniProt Q9UHD2); enzyme activity, inhibitor; 0.5 µM; reference: control): 5.25%

Repeated from above (block 2):
L929 RIPK3 knockout; 6.25 µM, with: zVAD: 103% and 104% and 102%
L929; CCK-8; 50 µM, with: zVAD: 54.3% and 52.4% and 54.8% and 55.9%
